Measured values collected from several papers.
Lines come from different studies, so protocols differ. Several values in a cell are separate wells, animals, samples, runs or records. ± marks the error that the study gave.
NADH dehydrogenase [ubiquinone] iron-sulfur protein 7, mitochondrial/NADH dehydrogenase [ubiquinone] iron-sulfur protein 2, mitochondrial/MT-ND1: NADH dehydrogenase [ubiquinone] iron-sulfur protein 7, mitochondrial/NADH dehydrogenase [ubiquinone] iron-sulfur protein 2, mitochondrial/MT-ND1 (Homo sapiens, UniProt O75251+O75306+P03886)
TRPM8: Transient receptor potential cation channel subfamily M member 8 (TRPM8, Homo sapiens, UniProt Q7Z2W7)
FFAR4: Free fatty acid receptor 4 (FFAR4, Homo sapiens, UniProt Q5NUL3)
Kir3.1/Kir3.2: Kir3.1/Kir3.2 (Homo sapiens, UniProt P48051+P48549)
PDE1C isoform PDE1C2: Dual specificity calcium/calmodulin-dependent 3',5'-cyclic nucleotide phosphodiesterase 1C, isoform PDE1C2 (PDE1C, Homo sapiens, UniProt Q14123)
GAP50: Glideosome-associated protein 50 (GAP50, Plasmodium falciparum, UniProt Q8I2X3)
T1: riboswitch RNA yjdF aptamer (Bacillus subtilis); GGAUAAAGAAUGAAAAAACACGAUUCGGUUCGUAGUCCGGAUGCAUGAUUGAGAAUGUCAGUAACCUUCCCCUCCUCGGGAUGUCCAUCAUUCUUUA

COc1ccc(C(=O)NCc2ccc(CNS(=O)(=O)c3ccccc3)cc2)cc1 — EC (CXCR4 (Homo sapiens, UniProt P61073); binding, inhibitor, competitive binding; MDA-MB-231; together with: biotinylated TN14003): 1000 nM
NC(=O)NOCCCCCCCCCCCCCC[P+](c1ccccc1)(c1ccccc1)c1ccccc1.O=C([O-])C(F)(F)F — oxygen consumption rate (NADH dehydrogenase [ubiquinone] iron-sulfur protein 7, mitochondrial/NADH dehydrogenase [ubiquinone] iron-sulfur protein 2, mitochondrial/MT-ND1; complex I-dependent respiration, Seahorse XF96; HCT-116; 0.1 µM, 24 h; relative to: control): 84.1 ± 5.17%
NCCCS(=O)(=O)O — normalised MST signal (SLC6A6 (Homo sapiens, UniProt P31641, G62A); binding, microscale thermophoresis; 3.91 µM, room temperature, together with: 50 nM labelled protein; higher = more binding): -0.0863
Nc1ncc2c(n1)-c1c([nH]c3ccc(-c4ccc(F)cc4)cc13)CCC2 — remaining binding (MYLK4 (Homo sapiens, UniProt Q86YV6); DiscoverX scanMAX; 1 µM; relative to: untreated control): 14%
CC(C)(C)c1nc2c3cc[nH]c(=O)c3c3cc(F)ccc3c2[nH]1 — remaining activity (TRPM8; antagonist; HEK293; 5 µM; relative to: control): 84.8 ± 6.73%
O=c1[nH]c(NCCc2ccc(Br)cc2)c(Br)c(=O)[nH]1 — activation (FFAR4; agonist, β-arrestin recruitment; CHO cells; 10 µM): 0%
CCc1cc(NC(=O)COc2cc(Cl)ccc2Cl)n(C2CCC(F)(F)CC2)n1 — Emax (Kir3.1/Kir3.2; thallium flux, activator; HEK293; relative to: standard compound): 84%
O=c1cc(NCCc2ccccc2F)[nH]c(=O)[nH]1 — agonist effect (FFAR4; agonist, β-arrestin recruitment; CHO cells; 10 µM; relative to: 30 µM TUG-891): 1 ± 1%
Cn1c2ccccc2c2c3c(c4c5ccccc5n(CCC#N)c4c21)CNC3=O — remaining activity (TRPM8; antagonist; HEK293; 5 µM; relative to: control): 96.1 ± 9.47%
[O-][S+]1CCCCS1 (stereo not drawn) — SOD1 dimer fraction (SOD1 (Homo sapiens, UniProt P00441, G94A); LC-MS; brain homogenate; 10 µM, 1 h, 37 °C): 1.88%
Nc1nc2c(ncn2[C@@H]2O[C@H](COP(=O)(O)O)[C@@H](O)[C@H]2O)c(=O)[nH]1 — reaction rate (GUK1 (Homo sapiens, UniProt Q16774, R41A); enzyme activity, NADH-coupled; 125 µM): 1.33 s⁻¹ and 0.521 s⁻¹ and 0.551 s⁻¹
CCN1CCC[C@H]1CNC(=O)c1c(O)c(Cl)cc(Cl)c1OC — log2 fold change (GPR132 (Homo sapiens, UniProt Q9UNW8); β-arrestin recruitment, TANGO luminescence; concentration not given; relative to: basal luminescence): -0.188
NC(=O)NO — oxygen consumption rate (NADH dehydrogenase [ubiquinone] iron-sulfur protein 7, mitochondrial/NADH dehydrogenase [ubiquinone] iron-sulfur protein 2, mitochondrial/MT-ND1; complex I-dependent respiration, Seahorse XF96; HCT-116; 500 µM, 24 h; relative to: control): 82.1 ± 9.12%
O=c1cc(NCc2cccc3ccccc23)[nH]c(=O)[nH]1 — agonist effect (FFAR4; agonist, β-arrestin recruitment; CHO cells; 10 µM; relative to: 30 µM TUG-891): 1%
COc1ccc(F)cc1C(=O)NCc1ccc(-c2nn([C@@H](C)C(F)(F)F)c(N)c2C(N)=O)cc1 — remaining activity (Cyclin-dependent kinase 19, with cyclin C (CDK19, Homo sapiens, UniProt Q9BWU1); kinase activity, inhibitor, HotSpot radiometric; 100 nM, together with: ATP 10 µM): 101 ± 1.3%
CC[C@@H](C)[C@@H](NC(=O)[C@@H](Cc1ccc(O)cc1)NC(=O)[C@H]1CCCN1C(=O)[C@@H](CCCNC(=N)N)NC(=O)[C@H](N)Cc1c[nH]cn1)C(=O)N[C@H](C)C(=O)N[C@H](Cc1c[nH]cn1)C(=O)N[C@H](CCCNC(=N)N)C(=O)N[C@@H](C(=O)N[C@H](Cc1ccc(O)cc1)C(=O)N[C@H](CO)C(=O)N[C@H](Cc1ccccc1)C(N)=O)C(C)C — surface TFRC expression (Transferrin receptor protein 1 (Tfrc, Mus musculus, UniProt Q62351); flow cytometry; DC2.4; 6 h, pH 7.4, unit not given; relative to: 0 h): 0.846
COc1cccc(/C=C2\OC(=O)c3c2cc(C)[nH]c3=O)c1 — ligand efficiency (PDE1C isoform PDE1C2; enzyme activity, inhibitor; together with: 3H-cGMP substrate): 0.4
C#CCN(CCCN1CCN(C2CCCCC2)CC1)Cc1ccc(C(=O)c2ccc([N+](=O)[O-])cc2)cc1 — Ki ratio (TMEM97 (Homo sapiens, UniProt Q5BJF2); radioligand binding; RT-4 cell membranes; relative to: sigma1 Ki over sigma2 Ki): 7.88
CCCNc1cc(=O)[nH]c(=O)[nH]1 — inhibition (FFAR4; antagonist, β-arrestin recruitment; CHO cells; 10 µM, together with: 4 µM TUG-891): 21 ± 3%
CCCCCCCCC(=O)c1cc(O)c(O)c(O)c1 — activation (Nuclear receptor subfamily 4 group A member 2, LBD; with RXRα (Homo sapiens, UniProt P43354); reporter gene, full-length heterodimer DR5 reporter; 10 µM; relative to: vehicle): 1.1 fold
CCOc1nc2cccc(C(=O)O)c2n1Cc1ccc(-c2ccccc2-c2nnn[nH]2)cc1 — koff (LCN2 (Homo sapiens, UniProt P80188, C107S); NMR titration line-shape fit; induced fit model): 63 ± 1 s⁻¹
Nc1ncnc2c1ncn2[C@@H]1O[C@H](COP(=O)(O)OP(=O)(O)OP(=O)(O)O)[C@@H](O)[C@H]1O — normalized current (P2X purinoceptor 7 (P2rx7, Rattus norvegicus, UniProt Q64663, I214G); ion current, agonist, two-electrode voltage clamp; Xenopus laevis oocytes; 33.3 µM; relative to: highest concentration response): 0.034 and 0.01 and 0.0333
CC(=O)Nc1ccc(O)cc1 — chemical shift change (BRD4 (Homo sapiens, UniProt O60885); 19F NMR, item: tyrosine 65; 1470 µM; relative to: free protein): 0.013 ppm
Cc1cc2nc3[nH]c(=O)[nH]c(=O)c3nc2cc1C — Kd (T1, riboswitch RNA yjdF aptamer (Bacillus subtilis); fluorescence titration; together with: 380 nM lumichrome): 8 µM
CCN(CCO)CCCC(C)Nc1ccnc2cc(Cl)ccc12 (stereo not drawn) — inactivation slope factor (SCN5A (Homo sapiens, UniProt Q14524); sodium current, whole-cell patch clamp; 300 µM, without ATX-II): 6.27 mV/e-fold and 6.9 mV/e-fold and 6.7 mV/e-fold
CCCCCNc1cc(=O)[nH]c(=O)[nH]1 — inhibition (FFAR4; antagonist, β-arrestin recruitment; CHO cells; 10 µM, together with: 4 µM TUG-891): 17 ± 1%
c1cncc(NCc2ccc(-c3cc4ccncc4cc3OC3CCNCC3)s2)c1 — kon (GAP50; binding, surface plasmon resonance; 1:1 binding model): 8680 M⁻¹ s⁻¹
CC[C@@H]1[C@H](F)C(=O)N[C@@H]1COc1nccc2cc(C(N)=O)c(OC)cc12 — inhibition (CAMK1D (Homo sapiens, UniProt Q8IU85); ATP-site probe binding, ActivX profiling; THP-1 cell lysate; 0.04 mM, Lys1 site): 5.4%
O=c1nc(SCc2cc(F)cc(C(F)(F)F)c2)nc(SCc2ccc3nc(Cl)ccc3c2)[nH]1 — linear DNA (TOP2A (Homo sapiens, UniProt P11388); DNA cleavage, competition with etoposide; 7.8 µM, together with: etoposide 50 µM): 17% and 16.7%
Cc1[nH]c(N)nc1CCC(=O)c1ccccc1.Cl — Hill coefficient (HVCN1 (Homo sapiens, UniProt Q96D96, F150A); proton current, inhibitor, inside-out patch clamp): 0.92 ± 0.03
NCCNc1ncc(C(N)=O)c(Nc2cccc(C(F)(F)F)c2)n1 — remaining activity (TRPM8; antagonist; HEK293; 5 µM; relative to: control): 109 ± 3.83%
C[C@@H]1C(=O)O[C@H]2C[C@@]34[C@H]5C[C@@H](C(C)(C)C)[C@]36[C@@H](OC(=O)[C@@H]6O)O[C@@]4(C(=O)O5)[C@]21O — time constant of onset (Rdl (Drosophila melanogaster, UniProt P25123); ion current, inhibitor, two-electrode voltage clamp; IC50, together with: GABA at EC50): 5.2 ± 0.6 s
Cc1cnc(CCNC(=O)c2cc(-c3ccc(Cl)cc3)cs2)[nH]1 — kon (GAP50; binding, surface plasmon resonance; 1:1 binding model): 12400 M⁻¹ s⁻¹
O=C(COc1ccc(C(F)(F)F)cc1C(F)(F)F)Nc1cc(C2CCC2)nn1C1CCOCC1 — Emax (Kir3.1/Kir3.2; thallium flux, activator; HEK293; relative to: standard compound): 49%
CC(C)(C)c1cc(C(=O)Nc2cccnc2)cc(C(=O)Nc2cccnc2)c1 — koff (GAP50; binding, surface plasmon resonance; 1:1 binding model): 1.56 s⁻¹
COc1cccc(-n2nc3c4cc(Cl)ccc4[nH]cc-3c2=O)c1 — GABA current (Gamma-aminobutyric acid receptor subunit alpha-4/beta-3, with delta subunit (Rattus norvegicus, UniProt P28471+P63079); modulator, two-electrode voltage clamp; α4β3δ receptor; 1 µM, together with: GABA EC3-10; relative to: GABA alone): 109 ± 3.3%
O=C(Nc1cccc(Nc2nccc(Nc3cccc(C(F)(F)F)c3)n2)c1)C1CC1 — remaining activity (TRPM8; antagonist; HEK293; 5 µM; relative to: control): 87.9 ± 12.1%
Cc1cc2c(c(=O)[nH]1)C(=O)O/C2=C\c1ccccc1OC(C)C — ligand efficiency (PDE1C isoform PDE1C2; enzyme activity, inhibitor; together with: 3H-cGMP substrate): 0.39
COc1cc(/C=C2\SC(=O)NC2=O)cc(F)c1OCCNc1nc2c(cnn2C2CCCC2)c(=O)[nH]1 — selectivity ratio (PDE8A (Homo sapiens, UniProt O60658); relative to: PDE8A over PDE9): 28 fold
C[C@@H](O)[C@@H](CO)NC(=O)[C@@H](CCCNC(=N)N)NC(=O)[C@@H]1CCCN1C(=O)[C@@H]1CSSC[C@H](NC(=O)[C@H](Cc2ccccc2)NC(=O)CN2CCN(CC(=O)O)CCN(CC(=O)O)CCN(CC(=O)O)CC2)C(=O)N[C@@H](Cc2ccc(O)cc2)C(=O)N[C@@H](Cc2ccccc2)C(=O)N[C@@H](CCC(N)=O)C(=O)N[C@@H](CC(N)=O)C(=O)N1 [gallium-68 labelled] — binding (AVPR1B (Homo sapiens, UniProt P47901); receptor binding, radioimmunoassay; concentration not given, together with: vasopressin V1b 250 nM): 43.8% and 46.4% and 42%
O=c1cc(NCCCCCCCO)[nH]c(=O)[nH]1 — activation (FFAR4; agonist, β-arrestin recruitment; CHO cells; 10 µM): 0%
NCc1ccc(C(F)(F)F)cc1 — kcat (Maoa (Rattus norvegicus, UniProt P21396); substrate; pH 7.5, 25 °C, α,α-protio substrate): 5.56 s⁻¹
O=c1cc(N2CCC(c3ccccc3)CC2)[nH]c(=O)[nH]1 — agonist effect (FFAR4; agonist, β-arrestin recruitment; CHO cells; 10 µM; relative to: 30 µM TUG-891): 0%
CC(=O)Nc1ccc(-c2noc(C[C@H]3CCCN(Cc4cccc(F)c4C)C3)n2)cc1 — kon (GAP50; binding, surface plasmon resonance; 1:1 binding model): 16200 M⁻¹ s⁻¹
Nc1ncnc2c1ncn2[C@@H]1O[C@H](COP(=O)(O)OP(=O)(O)NP(=O)(O)O)[C@@H](O)[C@H]1O — current ratio Mg2+-bound over free (P2X purinoceptor 3 (P2RX3, Homo sapiens, UniProt P56373); ion current, agonist, patch clamp; HEK293; 1 µM): 0.0922 ± 0.0307
O=C(COc1ccc(Cl)cc1Cl)Nc1cc(C2CCC2)nn1C1CCOCC1 — Emax (Kir3.1/Kir3.2; thallium flux, activator; HEK293; relative to: standard compound): 45%
OCC1CN(Cc2ccccc2)CC12CCN(CC1CCCCC1)CC2 (stereo not drawn) — delta Tm (Prelamin-A/C, isoform A (Homo sapiens, UniProt P02545); CETSA; A549; 100 µM, 24 h): 2.64 °C
Nc1ncnc2c1ncn2[C@@H]1O[C@H](CSCC[C@H](N)C(=O)O)[C@@H](O)[C@H]1O — ΔG of binding (O-methyltransferase (Sorghum bicolor, UniProt A0A1B6PFV1); isothermal titration calorimetry; concentration not given, apo protein): -6.27 kcal/mol
NC(=O)NOCCCCCCCCCCCCCCCC[P+](c1ccccc1)(c1ccccc1)c1ccccc1.O=C([O-])C(F)(F)F — oxygen consumption rate (NADH dehydrogenase [ubiquinone] iron-sulfur protein 7, mitochondrial/NADH dehydrogenase [ubiquinone] iron-sulfur protein 2, mitochondrial/MT-ND1; complex I-dependent respiration, Seahorse XF96; HCT-116; 0.03 µM, 24 h; relative to: control): 94.4 ± 2.33%
NC(=O)c1sc(-c2ccccc2)cc1NC(=O)c1cccs1 — Hill slope (3-oxoacyl-[acyl-carrier-protein] reductase FabG (fabG, Pseudomonas aeruginosa, UniProt O54438); enzyme activity, inhibitor, NADPH fluorescence; reverse reaction, together with: 3-OH-decanoyl-NAC, NADP): 0.7
O=C(O)CCCCCCCNc1cc(=O)[nH]c(=O)[nH]1 — agonist effect (FFAR4; β-arrestin recruitment; CHO; 10 µM; relative to: 30 µM TUG-891): 0%
